Published values of several laboratories.
Compare with care: the assays were run in different laboratories. ± gives the spread as reported.

Molecule	assay	system	conditions	scale	quantity	result
Cc1cc(Nc2cc(CN3CCOCC3)c3nc(C)c(Cc4ccc(Cl)cc4F)n3n2)n[nH]1	–	mouse, Ba/F3-JAK2 V617F tumour-bearing, peripheral blood	80 mg/kg twice daily, 8 days	–	platelet count	1.04e+06 µL⁻¹
Cc1c(C)c2c(c(C)c1OCc1ccccc1)CCC(C)(C(=O)NN=C1C(=O)Nc3ccccc31)O2 (stereo not shown)	seizure protection	male CF-1 mice	intraperitoneal, 4 h, with: maximal electroshock	–	minimal effective dose	> 300 mg/kg
COc1ccc2c(c1)CC[C@H](CN(C)CC(=O)O)[C@@H]2c1ccccc1	–	rat, prefrontal cortex microdialysate	oral gavage, 5 mg/kg/day, 2 weeks	–	basal dopamine level	1.86 ± 1.54 pg/10 µL
NC(=O)N1c2ccccc2C=Cc2ccccc21	–	Scn1a+/- mice	oral in chow, dose not given, spontaneous seizures, subchronic	reference: untreated	GTCS progressing to tonic hindlimb extension	decreased
C[C@H](CS)C(=O)N1CCC[C@H]1C(=O)O	inhibitor	mouse microglia conditioned medium	concentration not given, with: Aβ1-42 1 µg/mL	reference: vehicle	Aβ degradation	no effect
SIIVFEKL	flow cytometry, refers to: CD44hi CD8+ T cells	peptide, OT-I CD8+ T cells, mouse	dose not given, primed 5 days, TGF-β1 from day 2 onward, with: 20 ng/mL TGF-β1	–	IL-2+ IFN-γ+ cells	2.54%
insulin aspart	euglycaemic glucose clamp	Japanese type 1 diabetes patients	subcutaneous, 0.2 U/kg	–	onset of action	25.5 min
CCc1c2ccccc2c(CC)c2c1ccc1ccccc12	adrenal haemorrhage prevention	rat	oral, with: 7,12-DMBA 5 mg i.v.	–	minimal protective dose	1 mg
insulin	PET imaging	CD IGS rat, ipsilateral lateral gastrocnemius	intravenous, 3.39-48.48 IU/kg, 20 to 60 min	–	18F-FDG SUV slope	0.0061 ± 0.0019
OC[C@H]1O[C@@H](c2ccc(Cl)c(Cc3ccc(O[C@H]4CCOC4)cc3)c2)[C@H](O)[C@@H](O)[C@@H]1O	–	male Wistar rat, MCAO	oral, 2 mg/kg once daily, 7 days before, read 48 h after MCAO, with: liraglutide 1 mg/kg s.c. + metformin 200 mg/kg	reference: brain volume	infarct volume	4.91%
Cc1cc(-c2nnc(N)nc2-c2ccc(F)cc2)cc(Cl)n1	–	patients with mCRPC, low blood adenosine signature	dose not given, alone or with durvalumab	–	median progression-free survival	8.7 weeks
Cc1cccc(N(O)N=Nc2ccc(S(=O)(=O)Nc3onc(C)c3C)cc2)c1	paw oedema	rat, carrageenan oedema	oral, 100 mg/kg, 4 h after carrageenan	reference: vehicle	inhibition	68.3%
CCCOc1ccc(/C=C(\C(=O)c2cc(C)[nH]c(=O)c2C(=O)N2CCCCC2)c2ccc(OCCC)cc2)cc1	cell proliferation, MTT	35404 melanoma brain metastasis, human patient-derived	72 h, tested up to 10 µM	–	IC50	> 10 µM
Cc1cccc2cc3c(cc12)c(C)cc1ccccc13	adrenal haemorrhage prevention	rat	oral, with: 7,12-DMBA 5 mg i.v.	–	minimal protective dose	1 mg
Cc1cc(-c2ccc(C(=O)[C@@H]3CCCC[C@H]3C(=O)Nc3cnn4c3C(=O)NCC4)cc2)n[nH]1	urinary LTE4 level, refers to: leukotriene E4	human, urine	versus trough plasma concentration	–	IC50	0.0008 µM
CCOC(=O)c1sc(N=C2c3ccccc3-c3nc4cc(F)ccc4nc32)nc1C	–	mice with STZ-induced diabetes	oral, 25 mg/kg, 144 h, day 6	–	blood glucose	364 ± 69 mg/dL
CC(C)C[C@H](NC(=O)[C@H](CO)NC(=O)[C@H](CCCNC(=N)N)NC(=O)[C@H](CC(=O)O)NC(=O)[C@H](CCC(=O)O)NC(=O)[C@H](C)NC(=O)[C@@H]1CCCN1C(=O)[C@H](C)NC(=O)[C@H](CCC(=O)O)NC(=O)[C@@H]1CCCN1C(=O)[C@@H]1CCCN1)C(N)=O	HPLC-EC	F344 rat, normal, substantia nigra	intranasal, 1000 µg, 5 days/week for 3 weeks	–	HVA level	51 ± 4 ng/g
Cc1c(C(=O)NN2CCCCC2)nn(-c2ccc(Cl)cc2Cl)c1-c1ccc(Cl)cc1	–	rat, lean	intracerebroventricular, 5 µg per day, 6 days	reference: vehicle	food intake	decreased
Cc1c(C)c2c(c(C)c1O)CCC(C)(C(=O)NN=C1C(=O)Nc3ccc(Br)cc31)O2 (stereo not shown)	seizure protection	male CF-1 mice	intraperitoneal, 0.5 h, with: maximal electroshock	–	minimal effective dose	> 300 mg/kg
CCCC1O[C@@H]2C[C@H]3[C@@H]4CCC5=CC(=O)C=C[C@]5(C)[C@H]4[C@@H](O)C[C@]3(C)[C@]2(C(=O)CO)O1 (stereo partly shown)	refers to: human FGF21 protein	CD-1 mouse, plasma	subcutaneous, 0.3 mg/kg mRNA, MC3 LNP with hFGF21 mRNA, steroid/mRNA 2:3	reference: LNP without steroid	AUC(2-58 h) fold change	1.9 fold
NCCCC[C@@H]1NC(=O)[C@@H](Cc2c[nH]c3ccccc23)NC(=O)[C@H](c2ccccc2)NC(=O)[C@@H]2C[C@@H](OC(=O)NCCN)CN2C(=O)[C@H](Cc2ccccc2)NC(=O)[C@H](Cc2ccc(OCc3ccccc3)cc2)NC1=O	GHRH-stimulated GH secretion	healthy human volunteers	subcutaneous, 600 µg, with: GHRH 1 µg/kg	reference: pre-dose baseline	GH AUC(0-2h) change	-82.5%
CCOC(=O)C=C1SC(NN=C2c3ccccc3-c3nc4cc(F)ccc4nc32)=NC1=O	–	mice with STZ-induced diabetes	oral, 25 mg/kg, 144 h, day 6	–	blood glucose	351 ± 80 mg/dL
Cc1c(C)c2c(c(C)c1OCc1ccccc1)CCC(C)(C(=O)NN=C1C(=O)Nc3ccc(Br)cc31)O2 (stereo not shown)	seizure protection	male CF-1 mice	intraperitoneal, 0.5 h, with: pentylenetetrazole 60 mg/kg subcutaneous	–	minimal effective dose	100 mg/kg
CCN(O)N=Nc1ccc(S(=O)(=O)Nc2nccs2)cc1	paw oedema	rat, carrageenan oedema	oral, 100 mg/kg, 2 h after carrageenan	reference: vehicle	inhibition	30.3%
CC[C@H](C)[C@@H]1NC(=O)[C@H](CCCNC(=N)N)NC(=O)[C@H](CC(=O)O)NC(=O)[C@H](CC(C)C)NC(=O)[C@H](CCCCN)NC(=O)[C@H](CC(C)C)NC(=O)CNC(=O)[C@H](Cc2ccccc2)NC(=O)[C@@H](NC(=O)CNC(=O)[C@H](CCCCN)NC(=O)[C@H](CO)NC(=O)[C@H](CC(C)C)NC(=O)CNC(=O)[C@H](CCCCN)NC(=O)[C@H](CCCCN)NC(=O)[C@H](CC(N)=O)NC(=O)[C@H](C)NC(=O)CNC(=O)[C@H](CCCCN)NC(=O)[C@H](Cc2ccc(O)cc2)NC(=O)[C@H](CCCCN)NC(=O)[C@H](CCCNC(=N)N)NC(=O)[C@H](C)NC(=O)[C@H](CC(N)=O)NC(=O)[C@@H]2CCCN2C(=O)[C@H](Cc2c[nH]cn2)NC(=O)[C@H](CCC(=O)O)NC(=O)[C@H](CCC(N)=O)NC(=O)CNC(=O)[C@@H]2CCCN2)CSSC[C@@H](C(=O)O)NC(=O)CNC(=O)[C@H](CC(C)C)NC(=O)CNC(=O)[C@H](CO)NC(=O)[C@H](CCSC)NC(=O)[C@H](CO)NC(=O)CNC1=O	refers to: collagen type X marker	human patients with achondroplasia, serum	day 10 to 183, sigmoid Emax vs AUC(0-t)	–	Emax	4460 pg/mL

Molecule	assay	system	conditions	scale	quantity	result
Cc1c(C)c2c(c(C)c1O)CCC(C)(C(=O)NN=C1C(=O)Nc3ccccc31)O2 (stereo not shown)	seizure protection	male CF-1 mice	intraperitoneal, 0.5 h, with: maximal electroshock	–	minimal effective dose	> 300 mg/kg
COc1ccc2c(c1)c(CC(=O)O)c(C)n2C(=O)c1ccc(Cl)cc1	multiplex bead immunoassay, refers to: IL-9	CD-1 mice, serum	ip, 20 mg/kg, three-injection regimen, with: LPS 3 mg/kg	–	cytokine level	119 ± 60 pg/mL
Cc1c(C)c2c(c(C)c1O)CCC(C)(C(=O)NN=C1C(=O)Nc3ccc(Cl)cc31)O2 (stereo not shown)	seizure protection	male CF-1 mice	intraperitoneal, 0.5 h, with: pentylenetetrazole 60 mg/kg subcutaneous	–	minimal effective dose	100 mg/kg
COCCc1ccc(OCC(O)CNC(C)C)cc1 (stereo not shown)	–	rats, adrenaline arrhythmia, plasma	intragastric, 2.57 g/kg daily, 14 days	–	malondialdehyde level	3.66 ± 0.28 nmol/L
SIYNFEKL	flow cytometry, refers to: CD44hi CD8+ T cells	peptide, OT-I CD8+ T cells, mouse	dose not given, primed 5 days, restimulated 100 ng/mL OVA257, with: no TGF-β1	–	IL-2+ TNF-α+ cells	3.14%
O=C1CSC(NN=C2c3ccccc3-c3nc4cc(F)ccc4nc32)=N1	–	mice with STZ-induced diabetes	oral, 25 mg/kg, 288 h, day 12	–	blood glucose	230 ± 9.3 mg/dL
GLFHDQAGPPAGYEF	ELISA or Luminex	peptide, mouse peritoneal macrophages, C57BL/6 mouse	optimal dose within 0.1 pM to 100 nM, 1 h pretreatment, 15 h stimulation, with: LPS 100 ng/mL + IFN-γ 20 ng/mL	reference: LPS/IFN-γ stimulated control	inhibition of TNF-α release	0%
CCC(=O)N1CCC(NC(=O)Nc2ccc(OC(F)(F)F)cc2)CC1	von Frey	Sprague-Dawley rat, streptozotocin diabetic	intraperitoneal, 3 mg/kg, 60 min	–	mechanical withdrawal threshold	77.7 ± 1.1 g
AGEDPHGYFLPGQFA	IL-12p40 expression	peptide, peritoneal macrophages, C57BL/6 mouse	1 pM, 15 h, pretreated 1 h, with: LPS 100 ng/ml + IFN-γ 20 ng/ml	–	inhibition	47%
Cc1c(C)c2c(c(C)c1O)CCC(C)(C(=O)NN=C1C(=O)Nc3ccc(F)cc31)O2 (stereo not shown)	seizure protection	male CF-1 mice	intraperitoneal, 0.5 h, with: pentylenetetrazole 60 mg/kg subcutaneous	–	minimal effective dose	300 mg/kg
CC1(C)CCC(CN2CCN(c3ccc(C(=O)NS(=O)(=O)c4ccc(NCC5CCOCC5)c([N+](=O)[O-])c4)c(Oc4cnc5[nH]ccc5c4)c3)CC2)=C(c2ccc(Cl)cc2)C1	cell kill, PI exclusion flow cytometry	CD21+ nodal neoplastic cells, human	–	–	EC50	> 5 µM
CS/C(S)=N/CCCC[S+](C)[O-] (racemic)	refers to: Arnt	rat, mammary gland	oral gavage, 200 mg/kg, 4 days daily	reference: vehicle	mRNA level	11.1 fold
Cc1ccc(N(O)N=Nc2ccc(S(=O)(=O)Nc3onc(C)c3C)cc2)cc1	paw oedema	rat, carrageenan oedema	oral, 100 mg/kg, 4 h after carrageenan	reference: vehicle	inhibition	76.8%
Cc1c(C)c2c(c(C)c1O)CCC(C)(C(=O)NN=C1C(=O)N(C)c3cc(Cl)ccc31)O2 (stereo not shown)	seizure protection	male CF-1 mice	intraperitoneal, 4 h, with: pentylenetetrazole 60 mg/kg subcutaneous	–	minimal effective dose	100 mg/kg
O=C1CSC(N=C2c3ccccc3-c3nc4cc(F)ccc4nc32)=N1	–	mice with STZ-induced diabetes	oral, 25 mg/kg, 288 h, day 12	–	blood glucose	187 ± 3.4 mg/dL
CCN(O)N=Nc1ccc(S(=O)(=O)Nc2onc(C)c2C)cc1	paw oedema	rat, carrageenan oedema	oral, 100 mg/kg, 4 h after carrageenan	reference: vehicle	inhibition	77.1%
Cc1cc(Nc2ncc(Cl)c(Nc3ccccc3S(=O)(=O)C(C)C)n2)c(OC(C)C)cc1C1CCNCC1	immunohistochemistry	human, metastatic tissue	concentration not given	reference: archival tissue	pH3 and cleaved caspase-3	no effect
Cc1cc(C(=O)/C(=C\c2ccccc2C)c2ccccc2C)c(C(=O)N2CCCCC2)c(=O)[nH]1	cell proliferation, MTT	35404 melanoma brain metastasis, human patient-derived	72 h, tested up to 10 µM	–	IC50	> 10 µM
COc1c(C)c(C)c2c(c1C)CCC(C)(C(=O)NN=C1C(=O)Nc3ccc(Br)cc31)O2 (stereo not shown)	seizure protection	male CF-1 mice	intraperitoneal, 0.5 h, with: maximal electroshock	–	minimal effective dose	> 300 mg/kg
O=c1cc(N2CCOCC2)oc2c(-c3ccccc3)cccc12	Western blot	mouse myocardial infarction, myocardium	intraperitoneal, 1.5 mg/kg/day, with: PEG-exendin-4	–	VEGF level	inhibited
human insulin	–	type 1 diabetes patients, blood	dose not given, with: liquid meal 60 g carbohydrate	–	peak postprandial glucose	190 mg/dL
Cc1ccc(-c2nn(-c3ccccc3)cc2C=NNC2=NC(=O)C(=C3c4ccccc4-c4nc5cc(F)ccc5nc43)S2)cc1	–	mice with STZ-induced diabetes	oral, 25 mg/kg, 144 h, day 6	–	blood glucose	288 ± 77.9 mg/dL
CN(O)N=Nc1ccc(S(=O)(=O)Nc2nccs2)cc1	paw oedema	rat, carrageenan oedema	oral, 100 mg/kg, 4 h after carrageenan	reference: vehicle	inhibition	60.6%
C[C@]12C=CC(=O)C=C1CC[C@@H]1[C@@H]2[C@@H](O)C[C@@]2(C)[C@H]1CC[C@]2(O)C(=O)CO	TNF-alpha release	human, whole blood ex vivo	unbound concentration, PK/PD model, with: lipopolysaccharide	–	IC50	0.017 µM

Repeated from above:
Molecule	assay	system	conditions	scale	quantity	result
CCCC1O[C@@H]2C[C@H]3[C@@H]4CCC5=CC(=O)C=C[C@]5(C)[C@H]4[C@@H](O)C[C@]3(C)[C@]2(C(=O)CO)O1 (stereo partly shown)	refers to: human FGF21 protein	CD-1 mouse, plasma	subcutaneous, 0.3 mg/kg mRNA, MC3 LNP with hFGF21 mRNA, steroid/mRNA 2:3	reference: LNP without steroid	AUC(2-58 h) fold change	1.9 fold
Cc1cc(C(=O)/C(=C\c2ccccc2C)c2ccccc2C)c(C(=O)N2CCCCC2)c(=O)[nH]1	cell proliferation, MTT	35404 melanoma brain metastasis, human patient-derived	72 h, tested up to 10 µM	–	IC50	> 10 µM
NC(=O)N1c2ccccc2C=Cc2ccccc21	–	Scn1a+/- mice	oral in chow, dose not given, spontaneous seizures, subchronic	reference: untreated	GTCS progressing to tonic hindlimb extension	decreased
Cc1ccc(N(O)N=Nc2ccc(S(=O)(=O)Nc3onc(C)c3C)cc2)cc1	paw oedema	rat, carrageenan oedema	oral, 100 mg/kg, 4 h after carrageenan	reference: vehicle	inhibition	76.8%
Cc1c(C)c2c(c(C)c1OCc1ccccc1)CCC(C)(C(=O)NN=C1C(=O)Nc3ccccc31)O2 (stereo not shown)	seizure protection	male CF-1 mice	intraperitoneal, 4 h, with: maximal electroshock	–	minimal effective dose	> 300 mg/kg
CCN(O)N=Nc1ccc(S(=O)(=O)Nc2nccs2)cc1	paw oedema	rat, carrageenan oedema	oral, 100 mg/kg, 2 h after carrageenan	reference: vehicle	inhibition	30.3%
insulin aspart	euglycaemic glucose clamp	Japanese type 1 diabetes patients	subcutaneous, 0.2 U/kg	–	onset of action	25.5 min
CN(O)N=Nc1ccc(S(=O)(=O)Nc2nccs2)cc1	paw oedema	rat, carrageenan oedema	oral, 100 mg/kg, 4 h after carrageenan	reference: vehicle	inhibition	60.6%
